Measurements of several laboratories.
Lines come from different studies, so protocols differ. Values joined by “and” are separate records of one study, mostly repeats; a detail may differ. Numbers after ± are the reported error.

Compound	assay	system	conditions	endpoint	result
CSCC[C@H](NC(=O)[C@H](N)Cc1ccccc1)C(=O)N[C@@H](CCCNC(=N)N)C(=O)N[C@@H](Cc1c[nH]c2ccccc12)C(=O)N[C@@H](CO)C(=O)N[C@@H](CCCNC(=N)N)C(=O)N[C@@H](CCCCN)C(=O)N[C@@H](CCSC)C(=O)N1CCC[C@H]1C(=O)N[C@@H](CS)C(=O)N[C@H](C(=O)N[C@@H](CO)C(N)=O)C(C)C	12G5 competition, SUP-T1 cells	human plasma	concentration not given, 2 h	remaining activity	70 ± 5%
CC(C)C[C@@H]1NC(=O)CNC(=O)[C@H](CC(N)=O)NC(=O)[C@H](CCCNC(=N)N)NC(=O)[C@H]([C@@H](C)O)NC(=O)[C@@H]2CSSC[C@@H]3NC(=O)[C@H]([C@@H](C)O)NC(=O)CNC(=O)CNC(=O)[C@H](C(C)C)NC(=O)[C@@H]4CSSC[C@H](NC(=O)[C@H]([C@@H](C)O)NC(=O)[C@H](CSSC[C@H](NC(=O)[C@H](C(C)C)NC(=O)[C@@H]5CCCN5C1=O)C(=O)NCC(=O)N[C@@H](CCC(=O)O)C(=O)N[C@@H]([C@@H](C)O)C(=O)N4)NC(=O)CNC(=O)[C@@H]1CCCN1C(=O)[C@H]([C@@H](C)O)NC(=O)[C@H](CCCCN)NC3=O)C(=O)N[C@@H](CO)C(=O)N[C@@H](Cc1c[nH]c3ccccc13)C(=O)N1CCC[C@H]1C(=O)N[C@@H](C(C)C)C(=O)N2	HPLC	ammonium bicarbonate 0.1 M	180 µM, 14 days, pH 9.0, 37 °C, deamidation stability	remaining peptide	57.3 ± 6.3%
CC[C@@H](C)[C@@H](NC(=O)[C@@H](Cc1ccc(O)cc1)NC(=O)[C@H]1CCCN1C(=O)[C@@H](CCCNC(=N)N)NC(=O)[C@H](N)Cc1c[nH]cn1)C(=O)N[C@H](C)C(=O)N[C@H](Cc1c[nH]cn1)C(=O)N[C@H](CCCNC(=N)N)C(=O)N[C@@H](C(=O)N[C@H](Cc1ccc(O)cc1)C(=O)N[C@H](CO)C(=O)N[C@H](Cc1ccccc1)C(N)=O)C(C)C		10% human serum	4 h	remaining compound	107% and 106% and 104%
CSCC[C@H](NC(=O)[C@H](CCCCN)NC(=O)[C@H](CCCNC(=N)N)NC(=O)[C@H](CO)NC(=O)[C@H](Cc1c[nH]c2ccccc12)NC(=O)[C@H](CCCNC(=N)N)NC(=O)[C@H](CC(C)C)NC(=O)[C@H](N)Cc1ccccc1)C(=O)N1CCC[C@H]1C(=O)N[C@@H](CS)C(=O)N[C@H](C(=O)N[C@@H](CO)C(N)=O)C(C)C	12G5 competition, SUP-T1 cells	human plasma	20 µM, 2 h, 37 °C	remaining activity	66 ± 6%
CCCCN1CCC(COC(=O)c2ccc(N)c(O[11CH3])c2)CC1		phosphate buffer	30 min	remaining parent compound	99.5%
CC[C@@H](C)[C@@H](NC(=O)[C@@H](Cc1ccc(O)cc1)NC(=O)[C@H]1CCCN1C(=O)[C@@H](CCCNC(=N)N)NC(=O)[C@H](N)Cc1c[nH]cn1)C(=O)N[C@H](C)C(=O)N[C@H](Cc1c[nH]cn1)C(=O)N[C@H](CCCNC(=N)N)C(=O)N[C@H](CCCCNC(=O)c1cccc(S(=O)(=O)F)c1)C(=O)N[C@H](Cc1ccc(O)cc1)C(=O)N[C@H](CO)C(=O)N[C@H](Cc1ccccc1)C(N)=O		10% human serum	36 h	remaining compound	110% and 108% and 109%
CC[C@H](C)[C@H](NC(C)=O)C(=O)N[C@@H](CC(C)C)C(=O)N[C@@H](CCCNC(=N)N)C(=O)N[C@@H](Cc1c[nH]c2ccccc12)C(=O)N[C@@H](CO)C(=O)N[C@@H](CCCNC(=N)N)C(=O)N[C@@H](CCCCN)C(=O)N[C@@H](CC(C)C)C(=O)N1CCC[C@H]1C(=O)N[C@@H](CS)C(=O)N[C@H](C(=O)N[C@@H](CO)C(N)=O)C(C)C	12G5 competition, SUP-T1 cells	human plasma	20 µM, 8 h, 37 °C	remaining activity	67 ± 6%
CC(C)C[C@@H]1NC(=O)CNC(=O)[C@H](CC(N)=O)NC(=O)[C@H](CCCNC(=N)N)NC(=O)[C@H]([C@@H](C)O)NC(=O)[C@@H]2CSSC[C@@H]3NC(=O)[C@H]([C@@H](C)O)NC(=O)CNC(=O)[C@H](CCCCN)NC(=O)[C@H](C(C)C)NC(=O)[C@@H]4CSSC[C@H](NC(=O)[C@H]([C@@H](C)O)NC(=O)[C@H](CSSC[C@H](NC(=O)[C@H](C(C)C)NC(=O)[C@@H]5CCCN5C1=O)C(=O)NCC(=O)N[C@@H](CCC(=O)O)C(=O)N[C@@H]([C@@H](C)O)C(=O)N4)NC(=O)CNC(=O)[C@@H]1CCCN1C(=O)[C@H]([C@@H](C)O)NC(=O)[C@H](CC(N)=O)NC3=O)C(=O)N[C@@H](CO)C(=O)N[C@@H](Cc1c[nH]c3ccccc13)C(=O)N1CCC[C@H]1C(=O)N[C@@H](C(C)C)C(=O)N2	HPLC	ammonium bicarbonate	180 µM, 14 days, pH 9.0, 25 °C, deamidation stability	remaining peptide	92.5 ± 1.4%
CC(=O)OC/C(C)=C/CCP(=O)(OCOC(=O)c1ccccc1)Oc1ccc(C(C)C)cc1 (stereo not shown)		50% CD1 mouse plasma	100 µM, 2 h, pH 7.5, 37 °C	remaining compound	0%
CC(C)C[C@@H]1NC(=O)CNC(=O)[C@H](CC(N)=O)NC(=O)[C@H](CCCCN)NC(=O)[C@H]([C@@H](C)O)NC(=O)[C@@H]2CSSC[C@@H]3NC(=O)[C@H]([C@@H](C)O)NC(=O)CNC(=O)CNC(=O)[C@H](C(C)C)NC(=O)[C@@H]4CSSC[C@H](NC(=O)[C@H]([C@@H](C)O)NC(=O)[C@H](CSSC[C@H](NC(=O)[C@H](C(C)C)NC(=O)[C@@H]5CCCN5C1=O)C(=O)NCC(=O)N[C@@H](CCC(=O)O)C(=O)N[C@@H]([C@@H](C)O)C(=O)N4)NC(=O)CNC(=O)[C@@H]1CCCN1C(=O)[C@H]([C@@H](C)O)NC(=O)[C@H](CC(N)=O)NC3=O)C(=O)N[C@@H](CO)C(=O)N[C@@H](Cc1c[nH]c3ccccc13)C(=O)N1CCC[C@H]1C(=O)N[C@@H](C(C)C)C(=O)N2	HPLC	ammonium bicarbonate 0.1 M	180 µM, 7 days, pH 9.0, 37 °C, deamidation stability	remaining peptide	79 ± 2%
CC(C)[C@@H]1NC(=O)CNC(=O)[C@H](CC(N)=O)NC(=O)[C@H](CCCNC(=N)N)NC(=O)[C@H](Cc2ccc(O)cc2)NC(=O)[C@H](C(C)C)NC(=O)[C@@H](NC(=O)[C@@H](NC(=O)[C@H](CC(N)=O)NC(=O)[C@H](Cc2c[nH]c3ccccc23)NC(=O)[C@H](C)NC(=O)[C@H](Cc2ccccc2)NC(=O)CN)C(C)C)CSSC[C@@H](C(=O)N[C@@H](Cc2cnc[nH]2)C(=O)N[C@@H](CCCNC(=N)N)C(=O)N[C@@H](CCCNC(=N)N)C(=O)N[C@@H](C)C(=O)N[C@@H](CC(N)=O)C(N)=O)NC(=O)[C@H](C(C)C)NC(=O)[C@H](CCCNC(=N)N)NC1=O	HPLC	mouse mammary gland homogenate	2560 µM, 16.00 h, 37 °C, 50 mg/mL tissue	remaining peptide	26.1% and 32.4% and 29.8%
CC(C)C[C@@H]1NC(=O)[C@H](CC(N)=O)NC(=O)[C@H](CCCNC(=N)N)NC(=O)[C@H]([C@@H](C)O)NC(=O)[C@@H]2CSSC[C@@H]3NC(=O)[C@H]([C@@H](C)O)NC(=O)CNC(=O)CNC(=O)[C@H](C(C)C)NC(=O)[C@@H]4CSSC[C@H](NC(=O)[C@H]([C@@H](C)O)NC(=O)[C@H](CSSC[C@H](NC(=O)[C@H](C(C)C)NC(=O)[C@@H]5CCCN5C(=O)[C@H](CC(C)C)NC1=O)C(=O)NCC(=O)N[C@@H](CCC(=O)O)C(=O)N[C@@H]([C@@H](C)O)C(=O)N4)NC(=O)CNC(=O)[C@@H]1CCCN1C(=O)[C@H]([C@@H](C)O)NC(=O)[C@H](CC(N)=O)NC3=O)C(=O)N[C@@H](CO)C(=O)N[C@@H](Cc1c[nH]c3ccccc13)C(=O)N1CCC[C@H]1C(=O)N[C@@H](C(C)C)C(=O)N2	HPLC	ammonium bicarbonate 0.1 M	180 µM, 14 days, pH 9.0, 37 °C, deamidation stability	remaining peptide	95.6 ± 4.2%
CC[C@H](C)[C@H](NC(=O)[C@H](CCCCN)NC(=O)[C@H](CCCCN)NC(=O)CNC(=O)[C@H](CCCCN)NC(=O)[C@H](CC(C)C)NC(=O)[C@H](CCCCN)NC(=O)[C@H](CCCNC(=N)N)NC(=O)[C@@H](NC(=O)[C@H](CC(C)C)NC(=O)[C@H](CCCNC(=N)N)NC(=O)[C@@H](N)CCCNC(=N)N)[C@@H](C)CC)C(=O)N[C@@H](Cc1ccc(O)cc1)C(=O)N[C@@H](CC(C)C)C(=O)N[C@@H](Cc1ccc(O)cc1)C(=O)N[C@@H](Cc1ccccc1)C(=O)N[C@@H](CCCCN)C(=O)N[C@@H](CC(C)C)C(=O)N[C@@H](CCC(N)=O)C(=O)N[C@@H](CC(C)C)C(=O)N[C@@H](CC(C)C)C(=O)N[C@@H](CCCCN)C(=O)N[C@@H](CCCCN)C(N)=O	LC-MS	25% human serum	200 µM, 24 h, 37 °C	remaining intact peptide	83 ± 4%

A few entries again:
Compound	assay	system	conditions	endpoint	result
CC[C@H](C)[C@H](NC(=O)[C@H](CCCCN)NC(=O)[C@H](CCCCN)NC(=O)CNC(=O)[C@H](CCCCN)NC(=O)[C@H](CC(C)C)NC(=O)[C@H](CCCCN)NC(=O)[C@H](CCCNC(=N)N)NC(=O)[C@@H](NC(=O)[C@H](CC(C)C)NC(=O)[C@H](CCCNC(=N)N)NC(=O)[C@@H](N)CCCNC(=N)N)[C@@H](C)CC)C(=O)N[C@@H](Cc1ccc(O)cc1)C(=O)N[C@@H](CC(C)C)C(=O)N[C@@H](Cc1ccc(O)cc1)C(=O)N[C@@H](Cc1ccccc1)C(=O)N[C@@H](CCCCN)C(=O)N[C@@H](CC(C)C)C(=O)N[C@@H](CCC(N)=O)C(=O)N[C@@H](CC(C)C)C(=O)N[C@@H](CC(C)C)C(=O)N[C@@H](CCCCN)C(=O)N[C@@H](CCCCN)C(N)=O	LC-MS	25% human serum	200 µM, 24 h, 37 °C	remaining intact peptide	83 ± 4%
